Results pooled from the literature.
Lines come from different studies, so protocols differ. ± marks the error that the study gave.
FAAH: Fatty-acid amide hydrolase 1 (FAAH, Homo sapiens, UniProt O00519)
CatSper channel complex: CatSper channel complex (Homo sapiens, UniProt Q7RTX7+Q86XQ3+Q8NEC5+Q96P56)
Sequence of UniProt Q96P56 (whole entry, looked up): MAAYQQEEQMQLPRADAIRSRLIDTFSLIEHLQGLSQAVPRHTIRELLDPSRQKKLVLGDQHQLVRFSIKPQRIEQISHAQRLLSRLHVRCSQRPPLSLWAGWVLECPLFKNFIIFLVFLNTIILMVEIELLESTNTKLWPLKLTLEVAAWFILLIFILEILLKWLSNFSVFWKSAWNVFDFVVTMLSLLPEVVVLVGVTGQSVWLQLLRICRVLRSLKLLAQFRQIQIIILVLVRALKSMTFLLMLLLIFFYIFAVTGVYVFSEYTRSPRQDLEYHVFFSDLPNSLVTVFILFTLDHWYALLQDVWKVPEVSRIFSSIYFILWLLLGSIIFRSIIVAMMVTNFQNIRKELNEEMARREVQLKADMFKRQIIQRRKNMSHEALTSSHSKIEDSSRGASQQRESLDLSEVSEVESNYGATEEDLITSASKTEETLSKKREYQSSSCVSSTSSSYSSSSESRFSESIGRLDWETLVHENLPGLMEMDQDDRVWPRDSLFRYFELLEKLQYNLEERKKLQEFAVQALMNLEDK
Sequence of UniProt Q8NEC5 (whole entry, looked up): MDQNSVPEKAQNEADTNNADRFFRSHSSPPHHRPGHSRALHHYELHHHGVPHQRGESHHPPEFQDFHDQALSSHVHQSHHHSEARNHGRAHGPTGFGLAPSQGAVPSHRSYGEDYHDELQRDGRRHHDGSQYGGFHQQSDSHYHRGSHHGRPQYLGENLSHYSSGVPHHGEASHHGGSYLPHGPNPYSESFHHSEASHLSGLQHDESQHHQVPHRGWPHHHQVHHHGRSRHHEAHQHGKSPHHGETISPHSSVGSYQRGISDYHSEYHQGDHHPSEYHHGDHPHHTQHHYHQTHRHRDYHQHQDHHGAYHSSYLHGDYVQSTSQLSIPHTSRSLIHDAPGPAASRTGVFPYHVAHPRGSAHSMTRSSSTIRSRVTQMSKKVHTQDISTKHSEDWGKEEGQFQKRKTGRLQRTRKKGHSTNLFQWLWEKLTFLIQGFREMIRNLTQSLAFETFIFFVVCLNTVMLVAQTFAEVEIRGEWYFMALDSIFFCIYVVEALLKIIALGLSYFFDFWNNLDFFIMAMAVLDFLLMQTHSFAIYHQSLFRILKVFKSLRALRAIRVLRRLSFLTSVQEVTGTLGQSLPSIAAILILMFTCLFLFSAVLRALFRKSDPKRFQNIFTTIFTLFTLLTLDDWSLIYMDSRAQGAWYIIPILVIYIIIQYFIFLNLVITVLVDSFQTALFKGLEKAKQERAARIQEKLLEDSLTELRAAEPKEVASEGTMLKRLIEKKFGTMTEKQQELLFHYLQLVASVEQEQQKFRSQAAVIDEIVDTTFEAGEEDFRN
Sequence of UniProt Q86XQ3 (whole entry, looked up): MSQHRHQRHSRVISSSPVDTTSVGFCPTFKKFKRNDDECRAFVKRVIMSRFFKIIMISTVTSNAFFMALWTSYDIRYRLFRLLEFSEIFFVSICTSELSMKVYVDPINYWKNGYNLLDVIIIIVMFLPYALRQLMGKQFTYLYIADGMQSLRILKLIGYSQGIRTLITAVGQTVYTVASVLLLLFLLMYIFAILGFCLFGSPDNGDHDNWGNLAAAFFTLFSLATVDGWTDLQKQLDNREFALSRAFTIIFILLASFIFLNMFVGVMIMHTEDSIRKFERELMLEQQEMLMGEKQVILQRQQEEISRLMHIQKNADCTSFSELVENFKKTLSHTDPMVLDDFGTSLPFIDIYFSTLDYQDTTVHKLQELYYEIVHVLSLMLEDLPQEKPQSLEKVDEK
Sequence of UniProt Q7RTX7 (whole entry, looked up): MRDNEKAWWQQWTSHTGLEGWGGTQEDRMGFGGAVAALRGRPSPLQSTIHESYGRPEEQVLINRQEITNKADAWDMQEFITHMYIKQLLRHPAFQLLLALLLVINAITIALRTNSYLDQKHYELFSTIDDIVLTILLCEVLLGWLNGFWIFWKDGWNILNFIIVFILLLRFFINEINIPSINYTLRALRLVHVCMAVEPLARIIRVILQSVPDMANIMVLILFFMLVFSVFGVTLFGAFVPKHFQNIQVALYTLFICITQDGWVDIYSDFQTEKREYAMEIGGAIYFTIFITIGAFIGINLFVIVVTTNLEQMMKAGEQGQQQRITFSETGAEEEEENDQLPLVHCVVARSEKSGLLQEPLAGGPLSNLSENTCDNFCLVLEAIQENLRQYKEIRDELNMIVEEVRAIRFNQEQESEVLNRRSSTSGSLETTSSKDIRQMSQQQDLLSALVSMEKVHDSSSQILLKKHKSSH
EPHX2: Bifunctional epoxide hydrolase 2 (EPHX2, Homo sapiens, UniProt P34913)
Sequence of UniProt P34913 (whole entry, looked up): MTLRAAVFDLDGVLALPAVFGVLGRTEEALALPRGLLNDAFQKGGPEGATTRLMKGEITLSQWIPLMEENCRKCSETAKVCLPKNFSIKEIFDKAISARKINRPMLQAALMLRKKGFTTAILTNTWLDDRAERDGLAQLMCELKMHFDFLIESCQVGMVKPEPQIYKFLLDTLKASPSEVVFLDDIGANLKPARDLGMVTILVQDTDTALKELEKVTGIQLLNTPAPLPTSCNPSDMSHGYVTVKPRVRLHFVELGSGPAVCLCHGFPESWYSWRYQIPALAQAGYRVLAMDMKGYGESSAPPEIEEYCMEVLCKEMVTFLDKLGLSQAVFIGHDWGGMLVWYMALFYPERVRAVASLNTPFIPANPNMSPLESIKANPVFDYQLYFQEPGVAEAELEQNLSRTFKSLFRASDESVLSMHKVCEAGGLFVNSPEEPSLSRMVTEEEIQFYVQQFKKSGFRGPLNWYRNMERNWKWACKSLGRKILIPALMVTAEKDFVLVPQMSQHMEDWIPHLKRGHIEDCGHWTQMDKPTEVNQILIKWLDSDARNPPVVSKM
SCN5A: Sodium channel protein type 5 subunit alpha (SCN5A, Homo sapiens, UniProt Q14524)
Sequence of UniProt Q14524 (whole entry, looked up): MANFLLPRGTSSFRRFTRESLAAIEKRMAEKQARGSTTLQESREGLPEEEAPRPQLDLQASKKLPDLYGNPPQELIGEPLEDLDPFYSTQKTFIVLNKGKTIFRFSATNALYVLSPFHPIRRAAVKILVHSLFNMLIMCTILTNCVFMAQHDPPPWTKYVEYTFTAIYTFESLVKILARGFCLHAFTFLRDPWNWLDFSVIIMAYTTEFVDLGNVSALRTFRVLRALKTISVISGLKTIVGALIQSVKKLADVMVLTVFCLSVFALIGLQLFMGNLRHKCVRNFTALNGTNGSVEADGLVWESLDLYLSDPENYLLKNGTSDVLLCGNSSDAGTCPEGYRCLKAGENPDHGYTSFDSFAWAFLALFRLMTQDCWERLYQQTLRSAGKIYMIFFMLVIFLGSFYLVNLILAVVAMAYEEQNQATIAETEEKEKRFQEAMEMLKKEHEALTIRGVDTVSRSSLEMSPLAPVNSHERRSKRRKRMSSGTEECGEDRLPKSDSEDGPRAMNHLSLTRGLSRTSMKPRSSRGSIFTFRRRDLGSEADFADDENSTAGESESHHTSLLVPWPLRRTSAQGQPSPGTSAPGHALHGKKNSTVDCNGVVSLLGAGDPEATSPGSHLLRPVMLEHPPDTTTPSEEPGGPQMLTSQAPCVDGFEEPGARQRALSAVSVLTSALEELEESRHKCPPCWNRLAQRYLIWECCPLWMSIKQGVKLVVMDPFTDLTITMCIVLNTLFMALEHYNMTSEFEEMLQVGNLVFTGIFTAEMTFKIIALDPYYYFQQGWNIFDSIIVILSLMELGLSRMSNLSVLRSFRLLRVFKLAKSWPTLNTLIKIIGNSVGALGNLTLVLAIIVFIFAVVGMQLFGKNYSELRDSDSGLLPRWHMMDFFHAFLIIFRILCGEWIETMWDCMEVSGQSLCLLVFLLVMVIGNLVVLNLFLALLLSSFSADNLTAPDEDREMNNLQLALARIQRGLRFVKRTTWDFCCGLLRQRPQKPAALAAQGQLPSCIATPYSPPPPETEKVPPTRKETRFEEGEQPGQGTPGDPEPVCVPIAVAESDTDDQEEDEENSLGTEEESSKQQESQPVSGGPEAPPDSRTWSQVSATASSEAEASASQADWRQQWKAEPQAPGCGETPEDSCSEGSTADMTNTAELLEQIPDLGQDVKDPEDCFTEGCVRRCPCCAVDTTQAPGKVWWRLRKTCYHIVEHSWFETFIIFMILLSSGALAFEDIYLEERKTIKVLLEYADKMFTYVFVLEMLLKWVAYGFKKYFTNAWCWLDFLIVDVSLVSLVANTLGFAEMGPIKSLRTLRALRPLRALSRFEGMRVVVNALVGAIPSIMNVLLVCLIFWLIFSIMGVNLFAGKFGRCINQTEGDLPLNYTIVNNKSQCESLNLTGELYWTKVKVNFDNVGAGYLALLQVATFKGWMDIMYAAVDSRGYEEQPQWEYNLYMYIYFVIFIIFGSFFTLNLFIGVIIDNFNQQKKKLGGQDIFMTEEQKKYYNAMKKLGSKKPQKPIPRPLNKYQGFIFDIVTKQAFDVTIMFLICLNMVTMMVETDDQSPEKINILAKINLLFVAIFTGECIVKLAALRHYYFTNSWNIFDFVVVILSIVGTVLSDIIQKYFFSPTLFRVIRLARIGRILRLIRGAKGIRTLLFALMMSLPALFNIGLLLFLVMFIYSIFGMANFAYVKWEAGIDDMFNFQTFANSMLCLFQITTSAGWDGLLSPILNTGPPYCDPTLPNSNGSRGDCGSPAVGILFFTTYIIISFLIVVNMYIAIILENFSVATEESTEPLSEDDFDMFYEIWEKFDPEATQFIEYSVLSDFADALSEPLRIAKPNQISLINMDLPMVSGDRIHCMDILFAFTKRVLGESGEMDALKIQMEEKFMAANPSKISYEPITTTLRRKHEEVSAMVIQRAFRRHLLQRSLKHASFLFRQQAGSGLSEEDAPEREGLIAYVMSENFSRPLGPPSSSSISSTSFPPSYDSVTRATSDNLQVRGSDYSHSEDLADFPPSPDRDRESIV
Sequence of UniProt P28072 (whole entry, looked up): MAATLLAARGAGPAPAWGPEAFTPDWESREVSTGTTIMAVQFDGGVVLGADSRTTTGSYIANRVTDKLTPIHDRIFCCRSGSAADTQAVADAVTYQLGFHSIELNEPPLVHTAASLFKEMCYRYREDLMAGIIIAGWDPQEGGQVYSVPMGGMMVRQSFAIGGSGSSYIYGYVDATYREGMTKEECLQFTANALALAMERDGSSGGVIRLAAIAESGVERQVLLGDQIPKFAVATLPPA

SMILES	target	assay	test system	setting	IC50 [µM]
CCn1nc(Cl)c2c1-c1cnc(N)c(c1)O[C@H](C)c1cc(F)ccc1-c1nn(C)cc1C2	ALK tyrosine kinase receptor (ALK, Homo sapiens, UniProt Q9UM73)	enzyme activity, inhibitor, radiometric			0.0028
CCCCCCCCCCCCCCCCC1=C[C@H](C(=O)NC(C(=O)O)C(C)C)[C@H]2C(=O)C(C(=O)OC)=C(CCCCCCCCCCCCCCCC)[C@H]2[C@H]1C(=O)OC (stereo partly drawn)	Tyrosine-protein phosphatase non-receptor type 2 (PTPN2, Homo sapiens, UniProt P17706)	enzyme activity, inhibitor, absorbance			3.2
COC(=O)c1ccc(N2CCN(C(=O)c3ccn(C(C)(C)C)c3)CC2)cc1	hh, C-terminal autoprocessing domain (Drosophila melanogaster, UniProt Q02936)	inhibitor, FRET		with: C-H-Y reporter 0.1 µM and cholesterol 1.5 µM	12
O=C(Nc1ccc(-c2nc(-c3ccccc3)cs2)cc1)C1CCN(Cc2c(F)cccc2F)CC1	FAAH	enzyme activity, inhibitor, fluorescence		pH 8, with preincubation	0.0067
CCCCCCCCSc1nc(N)c2c(F)c(C#N)c(F)c(Cl)c2n1	M-phase inducer phosphatase 2 (CDC25B, Homo sapiens, UniProt P30305)	enzyme activity, inhibitor, fluorescence			2.7
O=C(Nc1ccc(-c2nc(-c3ccccc3)cs2)cc1)C1CCN(Cc2ccc(F)cc2F)CC1	Bifunctional epoxide hydrolase 2 (Ephx2, Rattus norvegicus, UniProt P80299)	enzyme activity, inhibitor, fluorescence		pH 7.4, with preincubation	0.0441
C=C(NC(=O)C(=C)NC(=O)c1csc(C2=NC3c4csc(n4)C4NC(=O)c5csc(n5)C(C(C)(O)C(C)O)NC(=O)C5CSC(=N5)C(=CC)NC(=O)C(C(C)O)NC(=O)c5csc(n5)C3(CC2)NC(=O)C(Cc2c[nH]c3ccccc23)NC(=O)C(=C)NC(=O)C(C)NC(=O)C(C(C)CC)NC2C=Cc3c(C(C)O)cc(nc3C2O)C(=O)OC4C)n1)C(N)=O (stereo not drawn)	Proteasome subunit beta type-6 (PSMB6, Homo sapiens, UniProt P28072)	caspase-like activity, inhibitor	purified 20S proteasome	15 min preincubation, 37 °C, with: Ac-Nle-Pro-Nle-Asp-AMC substrate	> 0.19
N#CC(C#N)C(c1ccc([N+](=O)[O-])cc1)c1c[nH]c2ccccc12 (stereo not drawn)	Cocaine esterase (CES2, Homo sapiens, UniProt O00748)	enzyme activity, inhibitor	human liver microsomes	pH 7.4, 37 °C, with: fluorescein diacetate	> 100
N=C(NCc1ccc(Cl)cc1Cl)NC(=O)c1nc(Cl)c(N)nc1N	CatSper channel complex	calcium influx, inhibitor, FLIPR	human sperm	with: 3 µM progesterone	7.8
CC12CC3CC(C)(C1)CC(NC(=O)Nc1ccc(C(=O)N4CCCC(C(=O)NO)C4)cc1)(C3)C2 (stereo not drawn)	EPHX2	enzyme activity, inhibitor			0.00039
CC(=O)Nc1ccc(S(=O)(=O)N2CCN(c3nc4cc(Cl)ccc4o3)CC[C@H]2C)cc1	Orexin/Hypocretin receptor type 1 (HCRTR1, Homo sapiens, UniProt O43613)	calcium signal, antagonist, fluorescence			4.52
Cc1cc2c(c(O)c1O)C(=O)c1c(O)cc(O)cc1C2=O	5-hydroxytryptamine receptor 1A (HTR1A, Homo sapiens, UniProt P08908)	calcium signal, antagonist			84.2
CC(C)CN(C)c1nc(N)c(C(=O)N=C(N)N)nc1Cl	CatSper channel complex	calcium influx, inhibitor, FLIPR	human sperm	with: 3 µM progesterone	9.1 ± 0.4
Cc1ccc(CNC(=O)C(CCc2ccccc2)NC(=O)C(NC(=O)Cc2cccc(Oc3ccccc3)c2)C(C)O)cc1 (stereo not drawn)	Proteasome subunit beta type-9 / Proteasome subunit beta type-10 (Homo sapiens, UniProt P28065+P40306)	inhibitor			> 100
O=C(NC(=S)Nc1nc(-c2ccccc2)cc(-c2ccc(F)cc2)n1)c1ccccc1	Proteinase K (PROK, Engyodontium album, UniProt P06873)	inhibitor			1.79 ± 0.08
O=C(Nc1ccc(C(F)(F)F)nc1)N1CCC(Cc2cccc(Oc3ccc(C(F)(F)F)cn3)c2)CC1	FAAH	enzyme activity, inhibitor, fluorescence		pH 8, with preincubation	0.003
O=C(NO)c1ccc(CN2c3ccccc3Oc3ccc(C(=O)Nc4ccc(C(=O)c5ccccc5)cc4)cc32)cc1	Histone deacetylase 9 (HDAC9, Homo sapiens, UniProt Q9UKV0)	enzyme activity, inhibitor			> 40

SMILES	target	assay	test system	setting	IC50 [µM]
O=C(O[C@@H]1Cc2c(O)cc(O)cc2O[C@@H]1c1ccc(O)cc1)c1cc(O)c(O)c(O)c1	Sucrase-isomaltase, intestinal (Si, Rattus norvegicus, UniProt P23739)	enzyme activity, inhibitor			84.2
CN(CCOc1ccc(F)cc1)C(=O)c1cccc(S(=O)(=O)N2CCc3ccccc3C2)c1	SCN5A	ion current, inhibitor, patch clamp			29.4
C[C@@H]1NC(=O)[C@@H]2CCCN2C(=O)[C@H](CCC(N)=O)NC(=O)C[C@@H](CCc2ccccc2)NC(=O)[C@@H]2CCCCN2C(=O)C(=O)C(C)(C)COC(=O)[C@@H](C)NC1=O	Peptidyl-prolyl cis-trans isomerase FKBP1A (FKBP1A, Homo sapiens, UniProt P62942)	binding, fluorescence polarization competition		crude library samples	> 100
COC1OC(C)C(OC2OC(C)C(O)C(OC3OC(C)C(OC4OC(C)C(O)C(OC5OC(C)C(OC6OC(C)C(O)C(OC7OC(C)C(OC8OC(C)C(O)C(OS(=O)(=O)O)C8OS(=O)(=O)O)C(OS(=O)(=O)O)C7OS(=O)(=O)O)C6OS(=O)(=O)O)C(OS(=O)(=O)O)C5OS(=O)(=O)O)C4OS(=O)(=O)O)C(OS(=O)(=O)O)C3OS(=O)(=O)O)C2OS(=O)(=O)O)C(OS(=O)(=O)O)C1OS(=O)(=O)O (stereo not drawn)	Coagulation factor IX, factor IXa with VIIIa (F9, Homo sapiens, UniProt P00740)	intrinsic tenase activity, chromogenic			0.0128
CC12CC3CC(C)(C1)CC(NC(=O)Nc1ccc(C(=O)N4CCN(C(=O)C5CC5)CC4)cc1)(C3)C2	EPHX2	enzyme activity, inhibitor			0.00094
NCCOCCOCCOCCOCCOCCOCCOCCOCCOCCNC(=O)c1ccc2c(-c3ccc(C(=O)O)cc3)nn(C(=O)c3c(Cl)cccc3C(F)(F)F)c2c1	Nuclear receptor ROR-gamma (RORC, Homo sapiens, UniProt P51449)	biochemical			0.16 ± 0.02
C[C@]12C[C@H](c3ccc(C4CC4)cc3)C3=C4CCC(=O)C=C4CC[C@H]3[C@@H]1CC[C@@]2(O)C(F)(F)C(F)(F)F	Progesterone receptor (PGR, Homo sapiens, UniProt P06401)	reporter gene, antagonist, luciferase			5e-05
N=C(N)NCCC[C@@H]1NC(=O)[C@H](Cc2c[nH]c3ccccc23)NC(=O)[C@H](CCCNC(=N)N)NC(=O)[C@H](Cc2c[nH]c3ccccc23)NC(=O)[C@H](CCCNC(=N)N)NC(=O)[C@H](Cc2c[nH]c3ccccc23)NC(=O)[C@H](CCCNC(=N)N)NC(=O)[C@H](Cc2c[nH]c3ccccc23)NC(=O)[C@H](CCCNC(=N)N)NC(=O)[C@H](Cc2c[nH]c3ccccc23)NC(=O)[C@H](CCCNC(=N)N)NC(=O)[C@H](Cc2c[nH]c3ccccc23)NC(=O)[C@H](CCCNC(=N)N)NC(=O)[C@H](Cc2c[nH]c3ccccc23)NC(=O)[C@H](CCCNC(=N)N)NC(=O)[C@H](Cc2c[nH]c3ccccc23)NC(=O)[C@H](CCCNC(=N)N)NC(=O)[C@H](Cc2c[nH]c3ccccc23)NC1=O	RAC-alpha serine/threonine-protein kinase (AKT1, Homo sapiens, UniProt P31749)	enzyme activity, inhibitor			< 0.25
C[C@]1(c2nc3c(C(N)=O)cccc3[nH]2)CCCN1CCOCCOCCOCCOCCOCCOCCNc1cccc2c1C(=O)N(C1CCC(=O)NC1=O)C2=O (stereo partly drawn)	Poly [ADP-ribose] polymerase 1 (PARP1, Homo sapiens, UniProt P09874)	enzyme activity, inhibitor			0.069
CCOc1cncc(-c2ccc(NC(=O)C(CC)c3ccnc(NS(=O)(=O)C4CC4)n3)nc2)n1 (stereo not drawn)	CTP synthase 2 (Ctps2, Rattus norvegicus, UniProt Q5U2N0)	enzyme activity, RapidFire mass spectrometry	rat	geometric mean	0.023
COc1ccccc1C1Sc2ccccc2NC2=C1C(=O)c1ccccc12 (racemic)	Dihydroorotate dehydrogenase (quinone), mitochondrial (PFF0160c, Plasmodium falciparum, UniProt Q08210)	enzyme activity, inhibitor, absorbance			> 20
NCCNC(=O)c1ccc2[nH]c(/C(=N/Nc3ccc(F)cc3)c3ccc(O)cc3)nc2c1	GTPase KRas (KRAS, Homo sapiens, UniProt P01116)	enzyme activity, inhibitor			1020
O=C(NC1=Nc2ccccc2C2=NCCN12)C1CCCCC1	Phosphatidylinositol 4,5-bisphosphate 3-kinase catalytic subunit beta isoform (PIK3CB, Homo sapiens, UniProt P42338)	enzyme activity, inhibitor, radiometric			> 10
CCOc1c(C(C)(C)O)sc2cnc(Nc3ccc(N4CCC(N5CC6(COC6)C5)CC4)cc3OC)nc12	SCN5A	sodium current, inhibitor, whole-cell patch clamp	HEK cells expressing SCN5A		> 30
Cc1cc([N+](=O)[O-])ccc1NC(=O)CSc1nc2ccccc2c(=O)n1-c1ccc(S(N)(=O)=O)cc1	DNA gyrase (Staphylococcus aureus, UniProt P0A0K8+P20831)	enzyme activity, inhibitor			30.8
Cc1cc(NCCc2ccccc2)c2ccccc2n1	CatSper channel complex	calcium influx, inhibitor, FLIPR	human sperm	with: 3 µM progesterone	15 ± 2

For quick reference, copied from above:
SMILES	target	assay	test system	setting	IC50 [µM]
COC(=O)c1ccc(N2CCN(C(=O)c3ccn(C(C)(C)C)c3)CC2)cc1	hh, C-terminal autoprocessing domain (Drosophila melanogaster, UniProt Q02936)	inhibitor, FRET		with: C-H-Y reporter 0.1 µM and cholesterol 1.5 µM	12
CC(=O)Nc1ccc(S(=O)(=O)N2CCN(c3nc4cc(Cl)ccc4o3)CC[C@H]2C)cc1	Orexin/Hypocretin receptor type 1 (HCRTR1, Homo sapiens, UniProt O43613)	calcium signal, antagonist, fluorescence			4.52
COC1OC(C)C(OC2OC(C)C(O)C(OC3OC(C)C(OC4OC(C)C(O)C(OC5OC(C)C(OC6OC(C)C(O)C(OC7OC(C)C(OC8OC(C)C(O)C(OS(=O)(=O)O)C8OS(=O)(=O)O)C(OS(=O)(=O)O)C7OS(=O)(=O)O)C6OS(=O)(=O)O)C(OS(=O)(=O)O)C5OS(=O)(=O)O)C4OS(=O)(=O)O)C(OS(=O)(=O)O)C3OS(=O)(=O)O)C2OS(=O)(=O)O)C(OS(=O)(=O)O)C1OS(=O)(=O)O (stereo not drawn)	Coagulation factor IX, factor IXa with VIIIa (F9, Homo sapiens, UniProt P00740)	intrinsic tenase activity, chromogenic			0.0128
